Measured values pooled from the literature.
Parts stem from different laboratories: compare values within a part only. “And” joins repeats or separate records; there may be more than shown.
Chain of UniProt Q99640 (whole entry, looked up): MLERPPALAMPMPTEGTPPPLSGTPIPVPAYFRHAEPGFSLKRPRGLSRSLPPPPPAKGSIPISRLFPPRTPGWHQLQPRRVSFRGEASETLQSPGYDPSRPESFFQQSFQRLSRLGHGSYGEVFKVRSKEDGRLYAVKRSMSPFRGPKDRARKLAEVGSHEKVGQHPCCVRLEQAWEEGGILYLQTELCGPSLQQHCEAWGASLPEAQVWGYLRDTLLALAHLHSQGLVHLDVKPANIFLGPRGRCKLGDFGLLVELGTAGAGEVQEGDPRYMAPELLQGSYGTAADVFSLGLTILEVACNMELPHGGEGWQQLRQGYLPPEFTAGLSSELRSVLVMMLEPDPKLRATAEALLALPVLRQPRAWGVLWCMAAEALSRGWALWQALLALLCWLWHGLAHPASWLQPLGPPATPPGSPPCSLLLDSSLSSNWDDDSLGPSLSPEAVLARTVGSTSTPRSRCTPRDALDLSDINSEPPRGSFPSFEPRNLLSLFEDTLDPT
Chain of UniProt Q96SW2 (whole entry, looked up): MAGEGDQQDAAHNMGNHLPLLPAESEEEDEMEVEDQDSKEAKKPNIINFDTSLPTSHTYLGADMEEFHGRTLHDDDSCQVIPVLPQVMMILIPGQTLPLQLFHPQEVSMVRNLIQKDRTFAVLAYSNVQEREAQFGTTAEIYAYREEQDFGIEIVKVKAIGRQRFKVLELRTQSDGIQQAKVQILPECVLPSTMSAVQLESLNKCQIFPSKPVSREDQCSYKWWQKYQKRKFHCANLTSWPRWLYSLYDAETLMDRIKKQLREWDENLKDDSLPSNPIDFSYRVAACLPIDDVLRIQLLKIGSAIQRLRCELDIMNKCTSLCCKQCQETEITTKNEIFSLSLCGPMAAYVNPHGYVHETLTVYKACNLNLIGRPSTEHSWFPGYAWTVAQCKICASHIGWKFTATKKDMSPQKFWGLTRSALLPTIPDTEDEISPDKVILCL

Study 1
Structure (SMILES): CCN1/C(=C/C=C2\CCCC(/C=C/C3=[N+](CC)c4ccccc4C3(C)C)=C2NCCCCCCCCN2CCC(Nc3nc4ccccc4n3Cc3ccc(F)cc3)CC2)C(C)(C)c2ccccc21
Cell line: U-87 MG
Concentration: concentration not given
Relative to: DMSO
test | log2 fold change
measured: CPNE4 mRNA | 1.67
measured: SYNPO mRNA | -1.56
measured: FAIM2 mRNA | -1.17
measured: SGTB mRNA | 1.91
measured: NKAP mRNA | 1.24
measured: CENPE mRNA | -1.77
measured: PEA15 mRNA | 1.4
measured: TTK mRNA | -1.87
measured: CSNK2A2 mRNA | 0.984
measured: PLPP4 mRNA | -1.26
measured: ZKSCAN3 mRNA | -0.929

Study 2
Compound: C[C@@H]1CN(c2ccc(-c3cc(C(=O)NCCOCCOCCOCCOCCOCCOCCNC(=O)/C=C/c4[nH]cc(C(=O)N[C@@H](CC(N)=O)c5ccc(F)c(Cl)c5)c4-c4ccc(Cl)cc4F)ccc3F)cc2NC(=O)c2ccc(F)cc2C(F)(F)F)C[C@H](C)N1C
Observed: thermal unfolding
Method: differential scanning fluorimetry
Concentration: 5.5 µM
Direction: higher = more unfolded
DCAF1: DDB1- and CUL4-associated factor 1 (DCAF1, Homo sapiens, UniProt Q9Y4B6)
Chain of UniProt Q9Y4B6 (whole entry, looked up): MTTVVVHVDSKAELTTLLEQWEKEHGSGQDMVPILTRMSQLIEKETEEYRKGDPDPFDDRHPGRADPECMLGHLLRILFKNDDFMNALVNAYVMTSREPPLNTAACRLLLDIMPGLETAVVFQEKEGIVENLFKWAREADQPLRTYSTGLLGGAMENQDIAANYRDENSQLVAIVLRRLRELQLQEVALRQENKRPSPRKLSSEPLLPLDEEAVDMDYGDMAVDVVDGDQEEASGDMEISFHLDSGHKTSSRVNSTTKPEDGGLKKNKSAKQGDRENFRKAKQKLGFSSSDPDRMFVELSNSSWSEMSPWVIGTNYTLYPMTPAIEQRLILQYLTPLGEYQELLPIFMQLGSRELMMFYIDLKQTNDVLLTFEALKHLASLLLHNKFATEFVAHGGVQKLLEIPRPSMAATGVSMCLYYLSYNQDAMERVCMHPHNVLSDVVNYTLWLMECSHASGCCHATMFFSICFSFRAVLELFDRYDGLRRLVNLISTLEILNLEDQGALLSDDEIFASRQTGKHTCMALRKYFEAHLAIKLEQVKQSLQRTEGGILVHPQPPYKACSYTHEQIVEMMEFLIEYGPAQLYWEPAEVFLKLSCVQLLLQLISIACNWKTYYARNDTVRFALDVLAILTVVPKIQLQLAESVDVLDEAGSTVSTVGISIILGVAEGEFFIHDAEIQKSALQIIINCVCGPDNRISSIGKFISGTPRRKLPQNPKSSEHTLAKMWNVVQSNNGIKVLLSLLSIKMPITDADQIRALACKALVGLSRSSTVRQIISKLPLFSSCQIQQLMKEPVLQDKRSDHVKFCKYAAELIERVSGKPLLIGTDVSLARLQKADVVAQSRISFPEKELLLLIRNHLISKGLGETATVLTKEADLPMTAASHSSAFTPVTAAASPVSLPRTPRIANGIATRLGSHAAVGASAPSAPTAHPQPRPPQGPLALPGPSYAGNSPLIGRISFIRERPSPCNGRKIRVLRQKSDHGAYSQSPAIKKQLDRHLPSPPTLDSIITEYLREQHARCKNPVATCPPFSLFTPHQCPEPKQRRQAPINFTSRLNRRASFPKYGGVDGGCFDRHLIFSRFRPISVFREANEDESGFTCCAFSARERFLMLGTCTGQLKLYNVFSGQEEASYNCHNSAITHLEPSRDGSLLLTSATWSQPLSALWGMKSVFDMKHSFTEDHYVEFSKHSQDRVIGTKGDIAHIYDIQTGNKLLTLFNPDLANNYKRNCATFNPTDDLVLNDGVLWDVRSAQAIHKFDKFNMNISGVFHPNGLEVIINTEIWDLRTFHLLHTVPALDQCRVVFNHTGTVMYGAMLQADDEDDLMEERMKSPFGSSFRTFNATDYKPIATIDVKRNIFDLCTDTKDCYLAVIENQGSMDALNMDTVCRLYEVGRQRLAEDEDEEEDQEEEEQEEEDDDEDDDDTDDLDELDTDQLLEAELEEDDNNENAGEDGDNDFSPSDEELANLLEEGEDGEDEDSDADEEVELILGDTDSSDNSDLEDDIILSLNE
WDR5: WD repeat-containing protein 5 (WDR5, Homo sapiens, UniProt P61964)
target | conditions | SYPRO Orange fluorescence [a.u.]
DCAF1 | 38.6 °C | 11000
WDR5 | 61.21 °C | 15100
DCAF1 | 72.01 °C | 46300
WDR5 | 86.01 °C | 60700
DCAF1 | 47 °C | 15800
DCAF1 | 86.41 °C | 34600
WDR5 | 80.21 °C | 65000

Further values, each from its own experiment
Compound | tested on | test | system | conditions | scale | endpoint | value
Cc1ncc(-c2cc3c(C#N)c(-c4c(C)ccc(O)c4C)cnc3[nH]2)cn1 |  |  | Sprague-Dawley rat, male, plasma | oral, dose not given |  | oral bioavailability | 6%
CCOc1ccc2nc(Sc3nc(Nc4ccc(I)cc4)nc(N4CCOCC4)n3)sc2c1 | Gaucher fibroblasts | qPCR, measured: GBA1 |  | 0.1 µM, 24 h, unit not given | relative to: DMSO | mRNA level | 1.26 and 0.992 and 0.838 and 1.28 and 1.15 and 1.67 and 1.52
Cc1ccc(O)c(C)c1-c1cnc2[nH]c(-c3cnc(N4CCC5(CC4)CC(N4CCN(c6ccc(N[C@H]7CCC(=O)NC7=O)cc6F)CC4)CO5)nc3)cc2c1C#N (single isomer, unassigned) | Protein cereblon (CRBN, Homo sapiens, UniProt Q96SW2) |  |  | 4.57 nM |  | binding | 3.49% and 4.58%
Cc1ccc(O)c(C)c1-c1cnc2[nH]c(-c3cnc(N4CC5(CC(CN6CCN(c7ccc(NC8CCC(=O)NC8=O)cc7F)CC6)C5)C4)nc3)cc2c1C#N (centres unmarked) |  |  | CD-1 mouse | intravenous, dose not given, 6 h |  | plasma concentration | not detected
Cc1ccc(O)c(C)c1-c1cnc2[nH]c(-c3cnc(N)nc3)cc2c1C#N | PKMYT1 (Homo sapiens, UniProt Q99640) | target engagement, NanoBRET |  | 1.37 nM |  | NanoBRET signal | 22.7 mBU and 21.7 mBU
